Experimental data collected from several papers.
Parts stem from different laboratories: compare values within a part only. Substitutions count along the parent as printed.

Block 1
Target: MAFK, bZIP domain (human)
Method: DHFR protein complementation
Sample: yeast
Notes: single substitutions, most at no-binding floor
Reference: wild-type JUN-FOS pair
Reading: higher = stronger binding
Quantity: binding fitness
Starting sequence: JUN, bZIP domain (human); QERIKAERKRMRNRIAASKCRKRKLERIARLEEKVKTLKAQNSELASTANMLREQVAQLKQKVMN; partner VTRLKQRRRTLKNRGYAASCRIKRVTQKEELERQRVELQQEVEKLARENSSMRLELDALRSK
T48Y: -1.56 natural log
L45C: -1.54 natural log
T37Y: -1.19 natural log
L31N: -1.54 natural log
M51E: -1.56 natural log
K39Q: -1.52 natural log
V35H: -1.48 natural log
L38F: -1.5 natural log
L31S: -1.48 natural log
K39H: -1.52 natural log
Q41W: -1.54 natural log

Block 2
Target: Sal-like protein 4, full length isoform A (SALL4, Homo sapiens, UniProt Q9UJQ4, residues 1-1053)
Chain of UniProt Q9UJQ4 (whole entry, looked up): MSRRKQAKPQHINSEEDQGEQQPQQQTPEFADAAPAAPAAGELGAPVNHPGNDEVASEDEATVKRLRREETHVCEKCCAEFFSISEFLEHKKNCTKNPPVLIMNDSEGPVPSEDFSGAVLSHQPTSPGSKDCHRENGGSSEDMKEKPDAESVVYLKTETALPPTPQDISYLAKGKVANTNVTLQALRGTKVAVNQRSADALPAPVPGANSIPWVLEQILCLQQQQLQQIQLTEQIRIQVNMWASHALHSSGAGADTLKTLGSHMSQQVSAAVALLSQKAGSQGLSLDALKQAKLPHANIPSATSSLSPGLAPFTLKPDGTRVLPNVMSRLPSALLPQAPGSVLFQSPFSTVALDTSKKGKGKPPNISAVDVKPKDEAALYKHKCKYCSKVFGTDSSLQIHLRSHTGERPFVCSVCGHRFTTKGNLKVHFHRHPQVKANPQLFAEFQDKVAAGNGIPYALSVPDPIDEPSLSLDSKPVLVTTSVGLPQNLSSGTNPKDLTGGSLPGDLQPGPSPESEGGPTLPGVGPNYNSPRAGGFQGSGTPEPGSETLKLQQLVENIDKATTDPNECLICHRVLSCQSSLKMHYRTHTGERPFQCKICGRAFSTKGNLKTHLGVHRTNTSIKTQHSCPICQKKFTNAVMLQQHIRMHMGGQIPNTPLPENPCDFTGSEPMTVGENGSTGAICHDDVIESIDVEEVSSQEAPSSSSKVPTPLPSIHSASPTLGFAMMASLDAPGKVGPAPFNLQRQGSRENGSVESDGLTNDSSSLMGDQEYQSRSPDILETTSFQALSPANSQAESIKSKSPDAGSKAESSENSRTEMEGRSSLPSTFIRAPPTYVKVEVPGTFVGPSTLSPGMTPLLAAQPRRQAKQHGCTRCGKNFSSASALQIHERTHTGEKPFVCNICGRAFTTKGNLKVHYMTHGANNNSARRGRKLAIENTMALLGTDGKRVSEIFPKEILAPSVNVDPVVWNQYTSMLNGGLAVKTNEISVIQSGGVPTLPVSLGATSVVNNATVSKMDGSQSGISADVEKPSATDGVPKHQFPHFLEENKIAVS
Method: universal PBM
Form: double-stranded DNA, one strand shown
Sample: in vitro
Concentration: 600 nM
Notes: 8-mer, flanks averaged, mean of replicates
Reading: higher = stronger binding
Quantity: E-score
AAGATACG: 0.226
ATAAGTCG: 0.136
AATGGCGC: -0.214
ATCTTTGG: 0.0774
CGCAGTCA: -0.0632
CTTAGTTA: 0.137
CGTCTGAG: -0.0905
CTCAATTC: 0.0931
ACGCGGAT: -0.0618
CACCTGAC: -0.105
CTTCGCAA: 0.0577
AACTTCTG: 0.0556
AGATCACT: 0.0955
AGTCTGGG: -0.26
TAGCACCA: -0.11
AGGGTGTA: 0.0197
GTATTAGA: 0.267
CATTGAGC: -0.0898
ACGCGAAG: -0.0217
GGCATGCA: -0.0796
AGCTACCT: -0.0547
CGCTCGCA: -0.237

Block 3
Target: CCND2, cyclin fold, Cln2 fusion (human)
Method: yeast growth competition, sequencing
Sample: yeast
Notes: weak parent motif
Reference: not given
Reading: higher = stronger binding
Quantity: normalised enrichment score
Starting sequence: EXO1 docking peptide (human); KPECGRVQRAIFQ; partner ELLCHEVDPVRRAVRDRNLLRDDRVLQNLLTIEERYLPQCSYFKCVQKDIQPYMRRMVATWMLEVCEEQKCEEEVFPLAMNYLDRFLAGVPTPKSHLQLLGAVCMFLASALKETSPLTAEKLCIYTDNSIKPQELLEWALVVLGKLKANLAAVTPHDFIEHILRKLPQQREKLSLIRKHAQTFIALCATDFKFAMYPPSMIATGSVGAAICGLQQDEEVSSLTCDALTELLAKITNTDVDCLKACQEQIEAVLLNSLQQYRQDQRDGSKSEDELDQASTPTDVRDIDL
KPACGRVQRAIFQ [E3A]: -0.311
KPECGRVQRAAFQ [I11A]: -0.102
KPECARVQRAIFQ [G5A]: -0.0353
KPECGRVQRAIAQ [F12A]: 0.29
KPECGRAQRAIFQ [V7A]: 0.493
KPECGRVQAAIFQ [R9A]: 0.0917

Block 4
Target: PABPC1L2, full length, GST fusion (mouse, UniProt A0ABA7IW68)
Method: RNAcompete
Form: RNA
Sample: in vitro
Concentration: 20 nM
Notes: 7-mer, probes averaged, single round
Reference: mean of 7-mers
Reading: higher = stronger binding
Quantity: 7-mer Z-score
Target sequence (chain): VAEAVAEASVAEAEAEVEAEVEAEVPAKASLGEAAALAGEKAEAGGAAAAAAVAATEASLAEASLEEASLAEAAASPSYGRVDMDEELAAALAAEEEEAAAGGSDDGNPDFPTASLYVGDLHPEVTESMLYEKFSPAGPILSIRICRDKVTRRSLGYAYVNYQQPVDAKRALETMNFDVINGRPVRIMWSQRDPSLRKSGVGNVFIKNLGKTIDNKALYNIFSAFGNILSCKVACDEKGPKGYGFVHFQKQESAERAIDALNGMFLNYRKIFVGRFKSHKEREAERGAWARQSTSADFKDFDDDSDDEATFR
AAGUAGU: -0.0573
ACAGACA: 0.193
UCCCUGC: -0.405
UUCCGUU: -0.456
AACCCUC: 0.00254
GAUACAU: -0.0663
AGAUGCC: -0.278
AGACAGU: -0.24
CUUGGUA: -0.0518
CAAGCCA: -0.124
CGCUGUC: -0.325
AGGAUAU: -0.101
CAGCAUA: -0.141
UAGGUGA: 0.0623
GUACGUC: -0.318
GGCUGGA: 0.338

Block 5
Target: Fragile X messenger ribonucleoprotein 1, C-terminal low-complexity region (Fmr1, Mus musculus, UniProt P35922)
Method: RNA Bind-n-Seq
Form: RNA
Sample: in vitro
Concentration: 200 nM
Notes: whole 134-nt RNA, ends assumed
Together with: 150 mM LiCl
Reference: input library
Reading: higher = stronger binding
Quantity: log2 enrichment
Library: 7-deaza-guanosine replaces G
All sequences stand within: GGGAGUUCUACAGUCCGACGAUC … UGGAAUUCUCGGGUGUCAAGG
UCCUCAAGUCCUGUGCUACACAUCGUAUGUACCGAAUCGGGCGGCGGCGGGGAAAGUAUUAUGUUACGCCGUUCGGAUCUGCACUUCCAG: 0.963
AGUCCUGUGCUACACAUCGUAUGUACCGAAUCGGGGUUUUUGGGGAGGGGAAAGGGGAAAGUAUUAUGUUACGCCGUUCGGAUCUGCACU: 0.0865
UCAAGUCCUGUGCUACACAUCGUAUGUACCGAAUCGGUUUGGUGGAAAAAAAGGAAAGUAUUAUGUUACGCCGUUCGGAUCUGCACUUCC: -0.459
CACAGACAACACGCACCCACAGAGACACAGAGGGAAGGGGUUGGGAUGGGGACAGGGUGCACAGCAGGGCGGGGUAGGACCCCAGCCCCU: 1.04
UCCUCAAGUCCUGUGCUACACAUCGUAUGUACCGAAUCGUGUGUGUGUGUGUAAAGUAUUAUGUUACGCCGUUCGGAUCUGCACUUCCAG: 0.701
ACCAUGCAGGUGGGCAUCUUUGGGAAGUGGGGCAAGGGGGGGAUAGGGAGGGGGGUAACACUUUGGGAACAAAAGGUCCCAGGUCGUUUC: 1.56
UGGCCCUGGUGGCAUGCGGGGAGGAAGAGGUGGCCUCAUGGAUCGUGGUGCUCCCGGUGGAAUGUUCAGAGGUGGCCGUGGUGGAGACAG: 1.4
AAGUCCUGUGCUACACAUCGUAUGUACCGAAUCGGGGUGGGGUUUUUGGGGUGGGGAAAGUAUUAUGUUACGCCGUUCGGAUCUGCACUU: -0.329
UGUGCUACACAUCGUAUGUACCGAAUCGGGGUUUUUGGGGAAAAAAAGGGGAAAAAAAGGGGAAAGUAUUAUGUUACGCCGUUCGGAUCU: -0.298
GUCCUGUGCUACACAUCGUAUGUACCGAAUCGGGGAAAAAGGGGUUUGGGGUUUGGGGAAAGUAUUAUGUUACGCCGUUCGGAUCUGCAC: -1.17
AAGUCCUGUGCUACACAUCGUAUGUACCGAAUCGGUUUUUGGAAAAAAAGGAAAGGAAAGUAUUAUGUUACGCCGUUCGGAUCUGCACUU: -2.81

Block 6
Target: Histone acetyltransferase KAT6A, winged helix 2, GST fusion (KAT6A, Homo sapiens, UniProt Q92794, residues 85-181)
Method: protein binding microarray
Form: double-stranded DNA, one strand shown
Sample: in vitro
Concentration: not given
Notes: 8-mer, flanks averaged, mean of 2 arrays, mostly near background
Reference: not given
Reading: higher = stronger binding
Quantity: E-score
Target sequence (chain): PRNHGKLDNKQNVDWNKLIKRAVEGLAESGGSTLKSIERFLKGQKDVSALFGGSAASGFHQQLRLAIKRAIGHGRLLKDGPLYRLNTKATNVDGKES
CACATGAC: -0.232
AAAGCAGC: 0.171
CCGTTTTC: 0.0118
CGAGGTGA: 0.117
GACGAGCC: 0.101
TCTACACA: -0.00713
TAACCCGA: -0.051
AAGGGAAG: 0.00363
ACCCTAAT: -0.126
TATAATGA: 0.00492
CCCTGCTC: 0.085
ATTTATCC: 0.16
AAAACTGA: 0.0165
GCCCGTCC: -0.0718
GACGATGA: -0.0684
AACGTGAA: -0.242
CCTTTACG: -0.135
TACGTATA: -0.0596
ATTCTTGG: 0.0662
ATTTTTCA: 0.0117
CCAACACA: 0.0992
GCACCCAA: 0.195
CGATCGCC: 0.0491
TCGAGAGA: 0.085
ACCAGTAG: 0.00995

Block 7
Target: ABI1, truncated, D143A, DHFR fusion (Arabidopsis thaliana)
Method: DHFR PCA, deep sequencing
Sample: yeast
Notes: methotrexate growth selection, single substitutions
Together with: (+)-ABA 200 µM
Reference: wild-type fitted maximum
Reading: higher = stronger binding
Quantity: relative binding score
Starting sequence: PYL1, truncated, DHFR fusion (Arabidopsis thaliana); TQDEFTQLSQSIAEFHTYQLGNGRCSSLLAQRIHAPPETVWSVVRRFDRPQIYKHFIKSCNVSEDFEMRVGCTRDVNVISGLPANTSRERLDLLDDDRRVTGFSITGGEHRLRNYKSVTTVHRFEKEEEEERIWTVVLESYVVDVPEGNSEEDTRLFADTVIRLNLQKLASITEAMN
D3G: 93.8%
C25K: 35.9%
S80M: 20.6%
I133E: 117%
Q31T: 70%
D96K: 36.4%
H110L: 11.3%
S42R: 97.3%
L93T: 102%
P37H: 68.9%
R49F: 86.6%
L166K: -2.07%
S150R: 72.9%
G81N: 24.3%
E147T: 92.2%
T173L: 82.7%
S59V: 87.1%
G71S: 67.9%

Block 8
Target: TAR DNA-binding protein 43, full length, His tag (TARDBP, Homo sapiens, UniProt Q13148, residues 1-414)
Method: RNA Bind-n-Seq
Form: RNA
Sample: in vitro
Concentration: 20 nM
Notes: 6-mer, flanks averaged, single round
Together with: 150 mM LiCl
Reference: input library
Reading: higher = stronger binding
Quantity: 6-mer enrichment (R)
CAACCA: 0.856
AUAUUU: 1.13
GAUCAG: 0.885
GUAGUA: 1.06
CCCAGC: 0.972
GCGUCA: 0.929
AUACCA: 0.854
AGCGAA: 0.9
CCUCCG: 0.953
CCUCGA: 0.853
GCCUCC: 1

For quick reference, copied from above (block 2):
CGCAGTCA: -0.0632
CTTAGTTA: 0.137
CGTCTGAG: -0.0905
CTCAATTC: 0.0931
ACGCGGAT: -0.0618
CACCTGAC: -0.105
CTTCGCAA: 0.0577
AACTTCTG: 0.0556
AGATCACT: 0.0955
AGTCTGGG: -0.26
TAGCACCA: -0.11
AGGGTGTA: 0.0197
GTATTAGA: 0.267
CATTGAGC: -0.0898
ACGCGAAG: -0.0217
GGCATGCA: -0.0796
AGCTACCT: -0.0547
CGCTCGCA: -0.237
